Results from different studies.
Compare with care: the assays were run in different laboratories. Several values in a cell are separate wells, animals, samples, runs or records. Numbers after ± are the reported error.
Target: C-X-C chemokine receptor type 4 (CXCR4, Homo sapiens, UniProt P61073)

SMILES	assay	endpoint	value
COc1ccccc1-c1nnc2n1N=C(c1ccc(F)cc1)CS2	β-arrestin recruitment, agonist	EC50	> 80 µM
N=C(N)NCCC[C@@H]1NC(=O)[C@H](CCCNC(=O)c2ccc(F)cc2)NC(=O)[C@@H](Cc2ccc(O)cc2)NC(=O)CNC(=O)[C@H](Cc2ccc3ccccc3c2)NC1=O	–	IC50	9 ± 1 nM
CC(=O)[O][Cu+].CN1CCCN2CCN(CCCN(Cc3ccccc3)CC2)CC1	calcium signal, antagonist, fluorescence	IC50	53.5 nM and ~50 nM
CCS(=O)(=O)c1ncc(N(Cc2ccco2)Cc2ccc(C)o2)c(C(=O)Nc2ccccc2F)n1	β-arrestin recruitment	IC50	~2000 nM
CC(=O)[O][Cu+].c1ccc(CN2CCN3CCN(CC2)CCN(Cc2ccccc2)CC3)cc1	ligand displacement, flow cytometry	IC50	44.5 nM
N=C(N)NCCC[C@H](NC(=O)[C@@H]1CSSC[C@H](NC(=O)[C@H](Cc2cccc3ccccc23)NC(=O)[C@H](CCCNC(=N)N)NC(=O)[C@@H](N)CCCNC(=N)N)C(=O)N[C@@H](Cc2ccc(O)cc2)C(=O)N[C@@H](CCC(N)=O)C(=O)N[C@@H](CCCCN)C(=O)N2CCC[C@@H]2C(=O)N2CCC[C@H]2C(=O)N[C@@H](Cc2ccc(O)cc2)C(=O)N[C@@H](CCCNC(=N)N)C(=O)N[C@@H](CCCNC(N)=O)C(=O)N1)C(=O)NCC(=O)N1CCC[C@@H]1C(=O)O	–	IC50	0.02 nM
COc1ccccc1-c1nnc2n1N=C(c1ccc([N+](=O)[O-])cc1)CS2	β-arrestin recruitment, agonist	EC50	> 80 µM
COc1ccccc1N1CCN(c2nc(Nc3ccc(C)cc3C)c3nccnc3n2)CC1	β-arrestin recruitment	IC50	~30000 nM
N=C(N)NCCC[C@H](NC(=O)[C@@H]1CSSC[C@H](NC(=O)[C@H](Cc2ccc3ccccc3c2)NC(=O)[C@H](CCCNC(=N)N)NC(=O)[C@H](CCCNC(=N)N)NC(=S)Nc2ccc(C[C@H]3CN(CC(=O)O)CCN(CC(=O)O)CCN3CC(=O)O)cc2)C(=O)N[C@@H](Cc2ccc(O)cc2)C(=O)N[C@@H](CCCNC(N)=O)C(=O)N[C@@H](CCCCN)C(=O)N[C@H](CCCCN)C(=O)N2CCC[C@H]2C(=O)N[C@@H](Cc2ccc(O)cc2)C(=O)N[C@@H](CCCNC(=N)N)C(=O)N[C@@H](CCCNC(N)=O)C(=O)N1)C(N)=O	ligand displacement in cells, radioligand	IC50	138 nM
COc1ccccc1-c1nnc2n1N=C(c1ccccc1)CS2	β-arrestin recruitment, agonist	EC50	> 80 µM
CC(=O)[O][Zn+].CN1CCN2CCN(CC1)CCN(Cc1ccccc1)CC2	calcium signal, antagonist, fluorescence	IC50	40 nM and ~50 nM
CCOc1ccccc1-c1nnc2n1N=C(c1ccc(O)cc1)CS2	β-arrestin recruitment, agonist	EC50	1.28 µM
COc1ccccc1N1CCN(c2nc(Nc3ccc(C)c(C)c3)c3nccnc3n2)CC1	β-arrestin recruitment	IC50	~5000 nM
